Measurements gathered from unrelated publications.
A part holds a random share of what one study measured.

Study 1 — method: universal PBM; form: double-stranded DNA, one strand shown; medium: in vitro; tested at: not given; direction: higher = stronger binding
Target: Sal-like protein 4, full length isoform B (SALL4, Homo sapiens, UniProt Q9UJQ4-2, residues 1-616)
Notes: 8-mer, flanks averaged, mean of replicates
Construct (chain): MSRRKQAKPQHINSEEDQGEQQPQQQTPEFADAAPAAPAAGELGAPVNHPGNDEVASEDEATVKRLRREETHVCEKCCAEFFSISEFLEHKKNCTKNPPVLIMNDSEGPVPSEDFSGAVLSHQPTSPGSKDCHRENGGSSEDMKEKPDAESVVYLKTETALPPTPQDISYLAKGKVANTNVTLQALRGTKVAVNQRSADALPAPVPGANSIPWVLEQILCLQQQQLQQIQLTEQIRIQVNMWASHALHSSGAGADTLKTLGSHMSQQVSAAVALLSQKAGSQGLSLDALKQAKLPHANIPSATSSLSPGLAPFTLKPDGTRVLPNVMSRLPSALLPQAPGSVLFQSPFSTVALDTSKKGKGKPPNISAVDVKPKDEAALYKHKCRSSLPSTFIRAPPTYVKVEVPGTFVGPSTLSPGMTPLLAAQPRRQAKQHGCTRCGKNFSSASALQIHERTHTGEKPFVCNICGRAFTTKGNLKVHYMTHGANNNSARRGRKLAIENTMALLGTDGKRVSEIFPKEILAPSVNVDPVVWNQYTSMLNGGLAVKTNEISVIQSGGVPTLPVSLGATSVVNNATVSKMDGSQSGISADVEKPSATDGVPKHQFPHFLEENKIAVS
With `CGGTCACG` the E-score was -0.289.
`CCTACCGC` gave an E-score of -0.282.
With `AACTGCTT` the E-score was -0.0418.
The E-score of `CATCAATA` is reported as 0.338.
`GGTCACCA` gave an E-score of -0.358.

Study 2 — method: RNA Bind-n-Seq; form: RNA; medium: in vitro; tested at: 365 nM; baseline: no-protein control; direction: higher = stronger binding
Target: RNA binding protein fox-1 homolog 2, RRM domain, GST-SBP tag (RBFOX2, Homo sapiens, UniProt O43251-10, residues 100-194)
Notes: natural RNA segment, single round, ends assumed
Shared flanks, not repeated: GGGAGUUCUACAGUCCGACGAUC … UGGAAUUCUCGGGUGCCAA
Construct (chain): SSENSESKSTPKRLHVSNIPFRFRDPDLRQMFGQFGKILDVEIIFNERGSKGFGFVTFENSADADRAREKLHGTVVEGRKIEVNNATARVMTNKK
`GUCUUUCAUCCUUGACAGGCUGGUAAUGUGCUGGCCACCUCCAGCUCCUGCAUCGAGUCUGUAAACCAGAGCUGGUUCUCAUGGCCUUCGUCACGAUACCAGGAUACGGA`: “RBNS enrichment (R)” 0.467.
`AGGUUCAGCCACAUGCCUAGACUUAUAUACUAGUUAGUGGUGCAGCCAGGGAGAGGACUCAGAUUUCCUGGAGGCAAAGUCUAUCUCUGAAACUCCAUGAAGACUUUUGC` — result for “RBNS enrichment (R)”: 0.324.
`UGCCAUUUCGUGUCUGUGGUAACAAAGUGACUUGUAAAAUGGUGGAUGUUUCCCUCACUGUGUUCUCUUCGUGGGUUGUUUCCUUGUGGGUCAUAGUCAUACCUUCUGAU` — result for “RBNS enrichment (R)”: 0.256.
`CGGGACUUAAAUUUCACACUAGAAAUGAGCUCCAGUCUUAACUCAGUGAAUGGGAAACACAUGUUCCUCUCUCCAGGUUACACUGAAACCUGUGUAGUGUGUACAGAGUG`: “RBNS enrichment (R)” 0.238.
For `CCUGUCCUCACUUCUCCUUUUUUCAGGUGACUCUCUGCUUGGCUCUUUAUCUUACUCUUCAGCUAAUGAAGUAGCAACAGUGUGUUACUAAUGAUUGCAAUCAUACAGUG`, “RBNS enrichment (R)” read 0.47.

Study 3 — method: RNA Bind-n-Seq; form: RNA; medium: in vitro; tested at: not given; baseline: input RNA pool; direction: higher = stronger binding
Target: RING finger protein unkempt homolog, zinc fingers 1-6, GST-SBP tag (UNK, Homo sapiens, UniProt Q9C0B0, residues 30-357)
Chain of UniProt Q9C0B0 (30-357, looked up): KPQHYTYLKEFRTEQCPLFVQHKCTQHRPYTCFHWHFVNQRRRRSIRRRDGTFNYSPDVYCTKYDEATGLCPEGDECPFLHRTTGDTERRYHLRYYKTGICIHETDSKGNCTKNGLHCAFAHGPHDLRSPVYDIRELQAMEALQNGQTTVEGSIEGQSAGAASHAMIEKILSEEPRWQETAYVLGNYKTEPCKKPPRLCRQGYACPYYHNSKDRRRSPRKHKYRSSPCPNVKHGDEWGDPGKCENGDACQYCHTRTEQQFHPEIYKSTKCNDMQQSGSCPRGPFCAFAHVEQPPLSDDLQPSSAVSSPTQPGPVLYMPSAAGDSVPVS
Notes: RNA with constant flanks, human and mouse sites, ends assumed
Shared flanks, not repeated: GGGAGUUCUACAGUCCGACGAUC … CAACAGAGGAUUGAGCAUCA
With `AGGUUAAAGAGAAAUGACUUUUUAGGAACUAGACUUGAACGUAUAAUUAAUAUGUGGAACUAGUUUGCUUUUAUAAUUCAUUGUAUCAAGAAGGAGUCAUGUUUUAAAUCCAAGGCAUUG` the bound/input enrichment was 0.882 ratio.
`GACAACAAAAUUAUAGAAUGCAAAUUUGAGAACAAUAGCUGGGUCUUCAUGAGACAGAGGAUAGACAAAAGUUUCCCAAAUGCCUACAACACAGCCAUGGCUGUGUGCAAUAGCAUCUCG` gave a bound/input enrichment of 6.8 ratio.
With `CUCCCCCUAACUGUGGCCCUACAAAUCCCUAGGCCAGACCUCACAGCAGUGCCCACAGGCAUGCCUUGUUUAGCCCUCCUCAAGGAAUUUUAAAAUUUUUAAUUACUUUUUUUUUUUUUG` the bound/input enrichment was 8.85 ratio.
For `AGAGCGGUGUCGGCCGCUGAGGAGGUGCGAUCCCCUGUCGGGUUCCCGCUGCUCCGGACCAUGUACUCGGCCCACAGGCCCCUGAUACCCGCGUCUGGCGCGGCCUCUCGUGGCCUCGGC`, the bound/input enrichment was 0.0707 ratio.
For `CUGGAGACUAAACUCAAAGCUUCUGAAGAAGAAAAGCAGAGAAUUAAAAAGGAUGUGGAGUCACUGAUGGAGAAACACAGUGUCCUGGAGAAAGGCUUCUUGAAGGAAAAGGAGCAGGAU`, the bound/input enrichment was 0.187 ratio.
`AGUGAUCCACCUUACAUGGAAAUGAAGGGAAAGUUGUCAGCGAAGCUUUCUGAAAACAGUAAGAUACUGAUCUCUAUGGCUAAGGAAAACAUACCACCAAAUAGUCAACAGACCAGGGGU` gave a bound/input enrichment of 0.474 ratio.
`AAGACAAAACUGGACACUCUAGCUACUGGUCAUCUUUUCCAGGAAGUGAGAUGCAUGAAACUAGUGCAGCAUCCUAACAUCGUCCGCCUUUAUGAAGUUAUUGACACCCAGACCAAACUA` gave a bound/input enrichment of 0.187 ratio.
The bound/input enrichment of `GAGCAGGACAUGGAGCAAGUUUGGCAGGAGCUAUUUUCCAUUCCCGAAUUACAGUGUCUUAAUACCGAAAACAAGCAGCUGGCUGAUACUACCGCUGUUCCCAGCCCAGAAGCCACACUG` is reported as 0.181 ratio.

Further values, each from its own experiment
With `PhoQ, residues 284 288 289 292 302 303 ASVMEA` the fold induction was 12.8 (PhoP, residues 12 14 15 18 19 HLGGL (Escherichia coli, UniProt P23836); Sort-seq, item: YFP reporter; E. coli; PhoQ-PhoP variant library, added: 10 µM Mg2+; baseline: high Mg2+ state, higher = stronger signaling).

For quick reference, copied from above (study 1):
With `AACTGCTT` the E-score was -0.0418.
